Published values pooled from the literature.
pIC50: −log10 of the molar value.
Cell line: L1210
Observed: cell growth or viability

Structure (SMILES)	setting	pIC50
COC(=O)c1cc(CCc2cc(OC)ccc2OC)ccc1O	48 h	6.44
O=C1C(=Cc2ccccc2)CN(C(=O)C#CC(=O)N2CC(=Cc3ccccc3)C(=O)C(=Cc3ccccc3)C2)CC1=Cc1ccccc1	–	5.01
COc1cc(C(=O)c2oc3ccccc3c2NC(=O)CI)cc(OC)c1OC	24 h	6.09
Nc1ncnc2c1ncn2[C@@H]1O[C@H](CO)[C@@H](O)[C@H](F)[C@H]1O	–	3.78
C=C(Br)C(=O)Nc1c(C(=O)c2cc(OC)c(OC)c(OC)c2)oc2cc(OC)ccc12	24 h	5.30
CCOP(=O)(OCC)[C@H]1C[C@@H](Cn2c(=O)n(C(=O)c3ccc(F)cc3)c(=O)c3ccccc32)ON1C (relative stereo)	48 h	< 3.60
O=C1C(=Cc2ccccc2)CN(C(=O)c2ccccc2C(=O)N2CC(=Cc3ccccc3)C(=O)C(=Cc3ccccc3)C2)CC1=Cc1ccccc1	–	5.38
Nc1ccn([C@@H]2O[C@H](CO)[C@@H](O)[C@H](F)[C@H]2O)c(=O)n1	–	3.80
